Assay results gathered from unrelated publications.
Protocols differ between the studies behind these lines.

Cc1nc(-c2ccc(OCCc3cccc(F)c3)c(C(N)=O)c2)cs1 — maximum soluble concentration (7H9-Tween-OADC medium; 30 (unit not given)): 100 µM
CNC(=O)c1c(C)oc2cc(Oc3ccnc4cc(OCCN5CCOCC5)ccc34)ccc12 — maximum haemoglobin level (human; 9 mg once daily, cycle 1): 19.5 g/dL
CNC(=O)c1cc(Oc2ccc(NC(=O)Nc3ccc(Cl)c(C(F)(F)F)c3)cc2)ccn1 — maximum tolerated dose (patients with advanced solid tumours; oral, once daily, 21-day cycle, added: intravenous combination partner, every 3 weeks): 400 mg
C[C@@H](N)C1CCN(S(=O)(=O)c2cccc3cnccc23)CC1 — maximum tolerated dose (healthy volunteers; oral, single ascending dose): 150 mg
CNC(=O)c1cc(C(F)F)ccc1OCCc1cccc(F)c1 — maximum soluble concentration (7H9-Tween-OADC medium; 30 (unit not given)): 50 µM
N[C@@H]1c2ccccc2OC12CCN(c1cnc3c(N4CCCc5ncccc54)n[nH]c3n1)CC2 — maximum tolerated dose (patients advanced solid tumours; oral, once daily, 21-day cycles): 100 mg
CCC[C@@](N)(CO)CCc1ccc(OCCCCCC(C)C)cc1 — maximum solubility (25% HP-β-CD in water): 9100 µg/mL
O=C(CCCN1CCC(O)(c2ccc(Cl)cc2)CC1)c1ccc(Br)cc1 — maximum haemolysis (sheep erythrocytes; 1 h, pH 7.5): 9.2%
Cc1ccc(C(=O)N(CCCN)C(c2nc3snc(C)c3c(=O)n2Cc2ccccc2)C(C)C)cc1 (stereo not shown) — maximum tolerated dose (AML patients; intravenous): 16 mg/day
Fc1ccc([C@@H]2CCNC[C@H]2COc2ccc3c(c2)OCO3)cc1 — maximum QTc interval (ECG, Fridericia correction; healthy participants; oral, dose not given, -1 h): 415 ms
CO[C@H]1C[C@@H]2CC[C@@H](C)[C@@](O)(O2)C(=O)C(=O)N2CCCC[C@H]2C(=O)O[C@H]([C@H](C)C[C@@H]2CC[C@@H](OC(=O)NCCOCCOCCOCCOCCOCCOCCOCCOCCC(=O)N3CCc4cc(Cn5nc(-c6ccc7oc(N)nc7c6)c6c(N)ncnc65)ccc4C3)[C@H](OC)C2)C[C@@H](O)[C@H](C)/C=C(\C)[C@@H](O)[C@@H](OC)C(=O)[C@H](C)C[C@H](C)/C=C/C=C/C=C/1C — maximum tolerated dose (patients with advanced solid tumours; intravenous, once weekly, with dexamethasone prophylaxis): 12 mg
Cc1cc(C)nc(Nc2ncc(C(=O)NCCc3c(C)[nH]c4ccccc34)cn2)c1 — maximum hepatic bioavailability (cynomolgus monkey liver microsomes): 36%
Cc1cc(N(CCOS(C)(=O)=O)CCOS(C)(=O)=O)ccc1C=O — maximum tolerated dose (patients with advanced solid tumours; intravenous, phase I first-in-human): 9 mg/m²

Excerpt of the above:
N[C@@H]1c2ccccc2OC12CCN(c1cnc3c(N4CCCc5ncccc54)n[nH]c3n1)CC2 — maximum tolerated dose (patients advanced solid tumours; oral, once daily, 21-day cycles): 100 mg
